Published values collected from several papers.
Each line is one published result; not all experiments were run side by side. Several values in a cell are separate wells, animals, samples, runs or records. ± gives the spread as reported.

SMILES	assay	test system	conditions	AUC(0-tau)
Nc1cc(F)ccc1NC(=O)c1ccc(CNC(=O)/C=C/c2cccnc2)cc1		Japanese patients, plasma	oral, 30 mg, cycle 1 day 1	3740 ng·h/mL
C[C@@H](N)c1cc(Cl)ccc1Cn1c(=S)[nH]c(=O)c2[nH]ccc21		healthy Japanese volunteers, plasma	oral, 2.5 mg once daily, day 1, geometric mean	0.1 µM·h
C[C@]12C=CC(=O)C=C1CC[C@@H]1[C@@H]2[C@@H](O)C[C@@]2(C)[C@H]1C[C@H]1O[C@@H](C3CCCCC3)O[C@]12C(=O)CO		children with asthma, serum	inhaled, 160 µg ciclesonide, day 7, geometric LS mean, per-protocol, no spacer	0.475 ng·h/mL
Cc1ccc(NC(=O)c2ccc(CN3CCN(C)CC3)cc2)cc1Nc1nccc(-c2cncc(-c3oncc3C)c2)n1		Parkinson's disease patients, plasma	oral, 50.0 mg once daily, day 1, 7-day dosing, mean	19300 ng·h/mL
Cc1cc(Nc2ncc(Cl)c(Nc3ccccc3S(=O)(=O)C(C)C)n2)c(OC(C)C)cc1C1CCNCC1	refers to: unbound drug	human, plasma	oral, 750 mg/day, after daily dose 9	0.36 µM·h and 0.335 µM·h
C=C(C)[C@@H]1CC[C@]2(NCCN3CCS(=O)(=O)CC3)CC[C@]3(C)[C@H](CC[C@@H]4[C@@]5(C)CC=C(C6=CC[C@@](CF)(C(=O)O)CC6)C(C)(C)[C@@H]5CC[C@]43C)[C@@H]12	LC-MS/MS	HIV-1-infected treatment-naive adults, plasma	oral, 140 mg once daily, day 7, monotherapy	29300 ng·h/mL
C#C[C@]1(O)CC[C@H]2[C@@H]3CCc4cc(O)ccc4[C@H]3CC[C@@]21C		HIV-positive women, serum	oral, 30 µg, 24 h after last dose, ritonavir arm, steady state, with: ritonavir	2.25 ± 0.567 ng·h/mL
C[C@H]1CN(C(=O)CC#N)[C@]12CCN(c1ncnc3[nH]ccc13)C2		atopic dermatitis patients, plasma	topical, 5 g of 3% ointment twice daily, day 1	30.4 ± 10.8 ng·h/mL

For quick reference, copied from above:
SMILES	assay	test system	conditions	AUC(0-tau)
Nc1cc(F)ccc1NC(=O)c1ccc(CNC(=O)/C=C/c2cccnc2)cc1		Japanese patients, plasma	oral, 30 mg, cycle 1 day 1	3740 ng·h/mL
